Measured values gathered from unrelated publications.
Protocols differ between the studies behind these lines. Numbers after ± are the reported error.
Cell line: Vero

SMILES	test	test system	conditions	CC50
COc1ccc(-c2cnc3[nH]cc(C#Cc4cccnc4)c3c2)cc1OC	cell growth or viability, resazurin	–	–	58.9 µM
C[C@@H]1O[C@@H](n2ccc(=O)[nH]c2=O)[C@H](I)[C@H](OCc2ccccc2)[C@H]1OCc1ccccc1	MTT	DMEM with 10% FBS	72 h	> 50 µM
CC(C)CC(NC(=O)OCc1ccccc1)C(=O)NC(CC1CCNC1=O)C(=O)C(=O)NC1CC1 (centres unmarked)	–	–	5 (unit not given)	> 250 µM
Cc1ccccc1S(=O)(=O)N1CCCC2(C1)Nc1cccnc1N=C2NC1CCCC1 (centres unmarked)	–	–	72 (unit not given)	45 µM
CCC(C)C1OC2(CCC1C)CC1CC(C/C=C(\C)C(OC3CC(OC)C(OC4CC(OC)C(O)C(C)O4)C(C)O3)C(C)/C=C/C=C3\COC4C(O)C(C)=CC(C(=O)O1)C34O)O2 (centres unmarked)	cell growth or viability, MTS	–	48 h	13.4 µM
CC(C)C(=O)OC[C@H]1O[C@@](C#N)(n2ccc(N)nc2=O)[C@H](O)[C@@H]1O	cell growth or viability	–	–	76.4 µM
NC(=O)c1cc(N2CCOCC2)ccc1OCCc1cccc(F)c1	–	–	–	> 100 µM
CC(C)(C)[Si](C)(C)OC[C@H]1O[C@@H](n2cc(C#N)c(=O)[nH]c2=O)[C@H](I)[C@@H](O[Si](C)(C)C(C)(C)C)[C@@H]1O[Si](C)(C)C(C)(C)C	MTT	DMEM with 10% FBS	72 h	76.3 µM
O=C(CCOCC(COCCC(=O)NC(Cc1c(-c2cc(C(=O)O)cc(C(=O)O)c2)[nH]c2c(-c3cc(C(=O)O)cc(C(=O)O)c3)cccc12)C(=O)O)(COCCC(=O)NC(Cc1c(-c2cc(C(=O)O)cc(C(=O)O)c2)[nH]c2c(-c3cc(C(=O)O)cc(C(=O)O)c3)cccc12)C(=O)O)COCCC(=O)NC(Cc1c(-c2cc(C(=O)O)cc(C(=O)O)c2)[nH]c2c(-c3cc(C(=O)O)cc(C(=O)O)c3)cccc12)C(=O)O)NC(Cc1c(-c2cc(C(=O)O)cc(C(=O)O)c2)[nH]c2c(-c3cc(C(=O)O)cc(C(=O)O)c3)cccc12)C(=O)O (centres unmarked)	–	–	24 (unit not given)	> 50 µM
Cc1cc(-n2c(=O)ccc3cnc4[nH]ccc4c32)ccc1F	cell growth or viability, resazurin	–	–	> 60 µM
CC(C)(C)[Si](C)(C)OC[C@H]1O[C@@H](n2cc(F)c(=O)[nH]c2=O)[C@H](I)[C@@H](O[Si](C)(C)C(C)(C)C)[C@@H]1O[Si](C)(C)C(C)(C)C	MTT	DMEM with 10% FBS	72 h	> 25 µM
O=C(N[C@@H](Cc1ccccc1)C(=O)N[C@@H](C[C@@H]1CCNC1=O)C(O)S(=O)(=O)O)OCc1ccccc1 (some centres unmarked)	–	–	5 (unit not given)	184 ± 4.8 µM
Nc1nc(=O)n([C@@H]2O[C@H](COCc3ccccc3)[C@@H](OCc3ccccc3)[C@H](OCc3ccccc3)[C@H]2I)cc1Br	MTT	DMEM with 10% FBS	72 h	> 50 µM
CCCCCCCCCCCC1CC(=O)NC(CC(N)=O)C(=O)NC(Cc2ccc(O)cc2)C(=O)NC(CC(N)=O)C(=O)NC(CCC(N)=O)C(=O)N2CCCC2C(=O)NC(CC(N)=O)C(=O)NC(CO)C(=O)N1 (centres unmarked)	MTT	–	24 h	136 ± 11 µg/mL
Cc1ccccc1-n1nnnc1Sc1ccc(C(=O)c2ccccc2)cc1[N+](=O)[O-]	–	–	24 h	> 25 µM
O=c1[nH]c(=O)n([C@@H]2O[C@H](COCc3ccccc3)[C@@H](OCc3ccccc3)[C@H](OCc3ccccc3)[C@H]2I)cc1Cl	MTT	DMEM with 10% FBS	72 h	> 50 µM
CN(C)c1ncnc2c1ncn2[C@@H]1O[C@H](CCl)[C@@H](NC(=O)[C@H](N)CSC(c2ccccc2)c2ccccc2)[C@H]1O	cell growth or viability, MTT	–	–	39.8 µM

Excerpt of the above:
SMILES	test	test system	conditions	CC50
CN(C)c1ncnc2c1ncn2[C@@H]1O[C@H](CCl)[C@@H](NC(=O)[C@H](N)CSC(c2ccccc2)c2ccccc2)[C@H]1O	cell growth or viability, MTT	–	–	39.8 µM
